Measurements of several laboratories.
Each line is one published result; not all experiments were run side by side.
OPRD1: Delta-type opioid receptor (OPRD1, Homo sapiens, UniProt P41143)
Sequence of UniProt P41143 (whole entry, looked up): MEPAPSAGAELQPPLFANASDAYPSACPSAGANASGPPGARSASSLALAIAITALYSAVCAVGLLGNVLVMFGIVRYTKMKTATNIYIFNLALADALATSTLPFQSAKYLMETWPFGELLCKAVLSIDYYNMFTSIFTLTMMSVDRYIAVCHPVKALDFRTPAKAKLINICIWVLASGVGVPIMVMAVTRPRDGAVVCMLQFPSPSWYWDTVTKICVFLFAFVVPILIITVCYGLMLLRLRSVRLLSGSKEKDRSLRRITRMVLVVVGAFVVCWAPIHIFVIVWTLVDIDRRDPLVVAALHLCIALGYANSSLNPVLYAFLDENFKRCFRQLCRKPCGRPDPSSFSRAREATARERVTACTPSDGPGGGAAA

| SMILES | target | test | system | conditions | endpoint | result |
| --- | --- | --- | --- | --- | --- | --- |
| Cc1cc(O)cc(C)c1C[C@H](N)C(=O)N1Cc2ccccc2C[C@H]1C(=O)NCC(=O)NCc1ccccc1 | OPRD1 | GTPγS binding, antagonist, radiometric | – | – | IC50 | 1.3 nM |
| N[C@@H](Cc1ccc(C(=O)NCCc2ccc3ccccc3c2)cc1)C(=O)N1Cc2ccccc2C[C@H]1C(=O)N[C@@H](Cc1ccccc1)C(=O)N[C@@H](Cc1ccccc1)C(=O)O | OPRD1 | GTPγS binding, agonist, radiometric | – | – | EC50 | 0.475 nM |
| CC(C)[C@H]1CC[C@@H](N2CC[C@@](C)(c3cccc(O)c3)[C@@H](C)C2)CC1 | OPRD1 | ligand displacement, radioligand | – | – | Ki | 586 nM |
| C[C@@H](NC(=O)[C@@H](N)Cc1ccc(O)cc1)C(=O)NCC(=O)N[C@@H](Cc1ccc(F)cc1)C(=O)Nc1ccccc1NC(=O)[C@H](Cc1ccc(F)cc1)NC(=O)CNC(=O)[C@@H](C)NC(=O)[C@@H](N)Cc1ccc(O)cc1 | OPRD1 | ligand displacement, radioligand | – | cell membranes | Ki | 12.8 nM |
| Oc1cccc(CCN(CCc2ccccc2)CC2CCCC2)c1 | OPRD1 | ligand displacement, radioligand | – | cell membranes | Ki | 1700 nM |
| CCCCCCCCN1CCC23c4c5ccc(O)c4OC2c2nc4ccccc4cc2CC3(O)C1C5 (stereo not drawn) | Delta-type opioid receptor, with Gi1 (OPRD1, Homo sapiens, UniProt P41143) | – | human cells | – | EC50 | 390 nM |
| CCCC[C@@H](C(=O)N[C@@H](CC(=O)O)C(=O)N[C@@H](Cc1ccccc1)C(N)=O)N(C)C(=O)[C@@H](Cc1c[nH]c2ccccc12)NC(=O)CNC(=O)[C@@H](Cc1ccccc1)NC(=O)[C@@H](N)Cc1ccc(O)cc1 | OPRD1 | GTPγS binding, agonist | – | cell membranes | EC50 | 20.9 nM |
| N=C(N)NCCCCCCCN1CC[C@]23c4c5ccc(O)c4O[C@H]2c2nc4ccccc4cc2C[C@@]3(O)[C@H]1C5 | Delta-type opioid receptor, with β-arrestin1 (OPRD1, Homo sapiens, UniProt P41143) | – | human cells | – | EC50 | 600 nM |
| CCC(=O)N(CC1CCCCN1C(=O)[C@H](Cc1ccccc1)NC(=O)CNC(=O)[C@@H](C)NC(=O)[C@@H](N)Cc1c(C)cc(O)cc1C)c1ccccc1 (stereo partly drawn) | OPRD1 | cell-free assay | – | – | Ki | 0.2 nM |
| CCCC[C@@H]1NC(=O)[C@H](Cc2ccccc2)NC(=O)CNC(=O)[C@H](NC(=O)[C@@H](N)Cc2ccc(O)cc2)C(C)(C)SSC(C)(C)[C@H](C(=O)N[C@@H](Cc2c[nH]c3ccccc23)C(=O)NCc2cc(C(F)(F)F)cc(C(F)(F)F)c2)NC(=O)[C@@H]2CCCN2C1=O | OPRD1 | GTPγS binding, agonist, radiometric | – | cell membranes | EC50 | 120 nM |
| CCCCCCCCCCNC(=O)c1ccc(C[C@H](N)C(=O)N2Cc3ccccc3C[C@H]2C(=O)N[C@@H](Cc2ccccc2)C(=O)N[C@@H](Cc2ccccc2)C(=O)O)cc1 | OPRD1 | GTPγS binding, agonist, radiometric | – | – | EC50 | 0.239 nM |
| CC(C)C[C@H](NC(=O)[C@H](Cc1ccccc1)NC(=O)CN(Cc1ccccc1[N+](=O)[O-])C(=O)CNC(=O)[C@@H](N)Cc1ccc(O)cc1)C(=O)O | OPRD1 | reporter gene (SEAP), agonist | HEK-293T cells | caged form, no photolysis | EC50 | 1290 nM |
| C[C@@H](NC(=O)[C@@H](N)Cc1ccc(O)cc1)C(=O)NCC(=O)N[C@@H](Cc1ccc(F)cc1)C(=O)N1CCN(C(=O)[C@H](Cc2ccc(F)cc2)NC(=O)CNC(=O)[C@@H](C)NC(=O)[C@@H](N)Cc2ccc(O)cc2)CC1 | OPRD1 | ligand displacement, radioligand | – | cell membranes | Ki | 0.09 nM |
| N[C@@H](Cc1ccc(C(=O)NCCc2cccc3ccccc23)cc1)C(=O)N1Cc2ccccc2C[C@H]1C(=O)N[C@@H](Cc1ccccc1)C(=O)N[C@@H](Cc1ccccc1)C(=O)O | OPRD1 | GTPγS binding, agonist, radiometric | – | – | EC50 | 1.03 nM |
| C[C@H]1[C@H]2CCC[C@]1(c1cccc(O)c1)CCN2CCc1ccccc1 | OPRD1 | GTPγS binding, agonist, radiometric | – | cell membranes | EC50 | 1310 nM |

For quick reference, copied from above:
| SMILES | target | test | system | conditions | endpoint | result |
| --- | --- | --- | --- | --- | --- | --- |
| N[C@@H](Cc1ccc(C(=O)NCCc2cccc3ccccc23)cc1)C(=O)N1Cc2ccccc2C[C@H]1C(=O)N[C@@H](Cc1ccccc1)C(=O)N[C@@H](Cc1ccccc1)C(=O)O | OPRD1 | GTPγS binding, agonist, radiometric | – | – | EC50 | 1.03 nM |
| C[C@H]1[C@H]2CCC[C@]1(c1cccc(O)c1)CCN2CCc1ccccc1 | OPRD1 | GTPγS binding, agonist, radiometric | – | cell membranes | EC50 | 1310 nM |
